# Experimental data collected from several papers.
# Lines come from different studies, so protocols differ. Numbers after ± are the reported error.
Structure (SMILES),test,system,setting,half-life [h]
N#Cc1ccc2c(-c3ccncc3)c(-c3ccc(F)cc3)nn2c1,,"CD1 mouse, female","intravenous, 5 mg/kg",3.45
CN[C@H](CC(C)C)C(=O)N[C@H]1C(=O)N[C@@H](CC(N)=O)C(=O)N[C@H]2C(=O)N[C@H]3C(=O)N[C@H](C(=O)N[C@H](C(=O)O)c4cc(O)cc(O)c4-c4cc3ccc4O)[C@H](O)c3ccc(c(Cl)c3)Oc3cc2cc(c3O[C@@H]2O[C@H](CO)[C@@H](O)[C@H](O)[C@H]2O[C@H]2C[C@](C)(N)[C@H](O)[C@H](C)O2)Oc2ccc(cc2Cl)[C@H]1O,mass spectrometry,"male C57BL/6J mouse, plasma","intravenous bolus, 35 mg/kg",~1.86
Nc1nnc(-c2ccccc2O)cc1N1CCN(Cc2ccc(OCCOCCNc3cccc4c3C(=O)N(C3CCC(=O)NC3=O)C4=O)c(F)c2)CC1 (stereo not shown),,"mouse, plasma","intraperitoneal, 50 mg/kg single dose, added: ritonavir 12.5 mg/kg",~5
Fc1ccc(-c2nc3cc(F)ccn3c2-c2ccncc2)cc1,,CD1 mouse female,"oral, 25 mg/kg",10.1
O=C(O)C[C@H](O)C[C@H](O)/C=C/c1c(C2CC2)nc2ccccc2c1-c1ccc(F)cc1,,"FVB wild-type mouse, plasma","oral, 5 mg/kg",3.1
O=C(O)Cc1ccccc1Nc1c(Cl)cccc1Cl,,"mouse CD-1, liver microsomes","1 µM, pH 7.4",0.197
CC[C@H](C)[C@H](NC(=O)[C@H](CCC(=O)O)NC(=O)[C@H](CO)NC(=O)[C@@H](NC(=O)[C@@H](N)CO)C(C)C)C(=O)N[C@@H](CCC(N)=O)C(=O)N[C@@H](CC(C)C)C(=O)N[C@@H](CCSC)C(=O)N[C@@H](Cc1cnc[nH]1)C(=O)N[C@@H](CC(N)=O)C(=O)N[C@@H](CC(C)C)C(=O)NCC(=O)N[C@@H](CCCCN)C(=O)N[C@@H](Cc1cnc[nH]1)C(=O)N[C@@H](CC(C)C)C(=O)N[C@@H](CC(N)=O)C(=O)N[C@@H](CO)C(=O)N[C@@H](CCSC)C(=O)N[C@@H](CCC(=O)O)C(=O)N[C@@H](CCCNC(=N)N)C(=O)N[C@H](C(=O)N[C@@H](CCC(=O)O)C(=O)N[C@@H](Cc1c[nH]c2ccccc12)C(=O)N[C@@H](CC(C)C)C(=O)N[C@@H](CCCNC(=N)N)C(=O)N[C@@H](CCCCN)C(=O)N[C@@H](CCCCN)C(=O)N[C@@H](CC(C)C)C(=O)N[C@@H](CCC(N)=O)C(=O)N[C@@H](CC(=O)O)C(=O)N[C@H](C(=O)N[C@@H](Cc1cnc[nH]1)C(=O)N[C@@H](CC(N)=O)C(=O)N[C@@H](Cc1ccccc1)C(N)=O)C(C)C)C(C)C,ELISA,"CD-1 mouse, female, serum","intravenous, 10 nmol/kg",0.14
CCOC(=O)C1=C(CN2CCC[C@@H]2C(=O)Nc2ccc(B(O)O)cc2)NC(c2nccs2)=N[C@H]1c1ccc(F)cc1Br,,"ICR mouse, plasma","oral, 10 mg/kg",0.66 ± 0.34
c1csc(CNc2cc[nH]n2)c1,,"male CD-1 mouse, plasma","oral, 20 mg/kg, hydrochloride salt",0.46
COc1ccc2nc(-c3ccccn3)c(N(C)c3ccc(F)cc3)n2c1,,"CD1 mouse, male, fasted, plasma","oral, 50 mg/kg, added: ABT 50 mg/kg",1.61
COc1cc(C)[nH]c(=O)c1CN1CCc2c(Cl)cc([C@H](OC)C3COC3)c(Cl)c2C1=O,,"female CB17 SCID mouse, HT-1376 xenograft, plasma","75 mg/kg, day 1",1.01
CN1CCCC1CCNS(=O)(=O)c1ccc2c(c1)CN(CC1CCCCC1)CC2 (stereo not shown),,"mouse, plasma","oral, 10 mg/kg",5
CCC/C(=C\C1=C(OC)C(=O)c2ccccc2C1=O)C(=O)N(CC)CC,,"mouse, female, eye","intravitreal, 10 µM",1.57

# A few entries again:
Structure (SMILES),test,system,setting,half-life [h]
c1csc(CNc2cc[nH]n2)c1,,"male CD-1 mouse, plasma","oral, 20 mg/kg, hydrochloride salt",0.46
COc1ccc2nc(-c3ccccn3)c(N(C)c3ccc(F)cc3)n2c1,,"CD1 mouse, male, fasted, plasma","oral, 50 mg/kg, added: ABT 50 mg/kg",1.61
